Measured values gathered from unrelated publications.
Numbered parts are unrelated; each lists some results of a single study.

Block 1
Target: Replicase polyprotein 1ab, polymerase (rep, Severe acute respiratory syndrome coronavirus 2, UniProt P0DTD1)
Read-out: enzyme activity
Action: inhibitor
Concentration: 20 µM
Endpoint: inhibition
N#Cc1cc2c(OCC(O)CN3CCN(C(c4ccccc4)c4ccccc4)CC3)cccc2[nH]1 (racemic): -4.28%
COC(=O)Nc1nc2cc(C(=O)c3ccccc3)ccc2[nH]1: 16.4%
Nc1ccc(-c2nc3ccc(-c4nc5ccc(N)cc5[nH]4)cc3[nH]2)cc1: 69.1%
COc1ccc(C(=O)NCc2cccnc2)cc1C(=O)NCc1cccnc1: -3.05%
O=C(O)C[C@H](O)C[C@H](O)/C=C/c1c(C2CC2)nc2ccccc2c1-c1ccc(F)cc1: -1.99%
C[C@@]1(O)[C@H](O)[C@@H](CO)O[C@H]1n1ccc(N)nc1=O: 0.65%
OC[C@@H](O)[C@@H](O)CO: -7.7%
CCN1CCC[C@H]1CNC(=O)c1c(OC)ccc(Br)c1OC: 4.77%
O=C(O)CCCCN(CCc1ccccc1OCc1ccc(CCc2ccccc2)cc1)Cc1ccc(C(=O)O)cc1: -4.45%
S=c1[nH]cnc2nc[nH]c12: 27.7%
CCC(=O)O[C@]1(C(=O)COC(C)=O)CC[C@H]2[C@@H]3C[C@H](C)C4=CC(=O)C=C[C@]4(C)[C@H]3[C@@H](O)C[C@@]21C: 0.27%
c1cc(-c2sc(-c3ccncc3)c(-c3ccncc3)c2-c2ccncc2)ccn1: -0.63%
CCCCNc1cc(C(=O)O)cc(S(N)(=O)=O)c1Oc1ccccc1: 19.4%
CC(C)N1CCN(c2ccc(C(=O)c3c(-c4ccc(O)cc4)sc4cc(O)ccc34)cc2)CC1: -1.71%
CN1CCc2nc(C(=O)N[C@@H]3C[C@@H](C(=O)N(C)C)CC[C@@H]3NC(=O)C(=O)Nc3ccc(Cl)cn3)sc2C1: -0.86%
CNC(=O)c1c(I)c(C(=O)NCC(=O)Nc2c(I)c(C(=O)O)c(I)c(C(=O)NCCO)c2I)c(I)c(N(C)C(C)=O)c1I: -3.2%
CC(C)c1ccccc1S(=O)(=O)c1cc(N)c2ncccc2c1[N+](=O)[O-]: -15.7%
Clc1ccc(C(c2ccc(Cl)cc2)C(Cl)(Cl)Cl)cc1: -13.5%
COc1cc2c(NC3CCN(C(C)C)CC3)nc(N3CCC(F)(F)CC3)nc2cc1OCCCN1CCCC1: 1.28%
CCN(c1cc(C#CCN2CCOCC2)cc(C(=O)NCc2c(C)cc(C)[nH]c2=O)c1C)[C@H]1CC[C@H](N(C)CCOC)CC1: -2.98%
O=C(N[C@H]1CN2CCC1CC2)c1ccc2c(c1)OCCO2: -4.94%
CS(=O)(=O)c1cccc(CNc2nc(Nc3ccc4c(c3)CCC(=O)N4)ncc2C(F)(F)F)c1: -2.69%
Cc1cccc(C)c1NC(=O)C(C)N (centres unmarked): 3.7%
CCCCCCCC/C=C\CCCCCCCC(=O)NCc1ccc(O)c(OC)c1: 2.2%
Cc1cccc(Oc2nc3c(C)cccn3c(=O)c2/C=C(\C#N)c2nc3ccccc3s2)c1: 2.43%

Block 2
Target: Histone acetyltransferase KAT6A, winged helix 1, GST fusion (KAT6A, Homo sapiens, UniProt Q92794, residues 1-85)
Method: protein binding microarray
Form: double-stranded DNA, one strand shown
Matrix: in vitro
Concentration: not given
Notes: 8-mer, flanks averaged, mean of 2 arrays, mostly near background
Relative to: not given
Reading: higher = stronger binding
Endpoint: E-score
Residues (chain): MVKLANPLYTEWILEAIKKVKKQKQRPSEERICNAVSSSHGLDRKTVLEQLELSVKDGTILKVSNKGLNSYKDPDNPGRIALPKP
GGCGGATA: 0.362
GTAATTCA: -0.0315
GCACCATA: -0.0594
GGATGTAC: -0.0438
AATACAGG: 0.0696
TAATGCAA: -0.262
GCACCCCA: 0.0169
CGATTCGC: 0.107

Block 3
Target: RING finger protein unkempt homolog, zinc fingers 1-6, GST-SBP tag (UNK, Homo sapiens, UniProt Q9C0B0, residues 30-357)
Method: RNA Bind-n-Seq
Form: RNA
Matrix: in vitro
Concentration: not given
Notes: RNA with constant flanks, human-mouse chimeric sites, ends assumed
Relative to: input RNA pool
Reading: higher = stronger binding
Endpoint: bound/input enrichment
Shared flanks, not repeated: GGGAGUUCUACAGUCCGACGAUC … CAACAGAGGAUUGAGCAUCA
Construct (chain): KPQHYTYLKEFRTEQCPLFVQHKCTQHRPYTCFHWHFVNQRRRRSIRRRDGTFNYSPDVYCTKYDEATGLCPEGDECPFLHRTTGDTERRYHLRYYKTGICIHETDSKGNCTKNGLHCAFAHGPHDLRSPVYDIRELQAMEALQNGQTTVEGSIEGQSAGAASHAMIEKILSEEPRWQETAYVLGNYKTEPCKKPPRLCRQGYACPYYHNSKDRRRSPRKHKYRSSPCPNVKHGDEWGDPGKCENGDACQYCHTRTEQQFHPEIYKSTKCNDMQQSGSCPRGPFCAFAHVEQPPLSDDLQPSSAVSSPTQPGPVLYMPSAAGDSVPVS
GGGUGGGUGGUCAUUGCCGUUUGAGCUGCUGAUUUUCAUGAGUCGCCUUCAAAACUCUCGUGUAGGGUUGACAAUGUGGGGGGGUGGGGGAUCCAGCUUAUUCUUUUUCCCCAGCCCCCA: 0.955 ratio
UCAUUUUUCUCUUUUCUUUCUUUCCUUUAGGAAAAGCAGAUUAGACUGGUUGUAAGAAAAACAGAAGCCAUGUUUCGAAGACCUGUGUUACAGGUAUUUCGUCAGUUUGUAAGACAUGAG: 0.438 ratio
UAAGUCCUGUGCCAGCACUUCGCUCAUAAAGUUUUAAAUUCUGGACCAAUAGUGUUUGUUUCCUGAUUUUUGUAUUCAAUACUUUAUCUAGUAUGUAACUCACUCUUACUGAUAAUAAAA: 0.888 ratio
UGACAAGCACGAGCAUCAGCCAUGCCUUUCCUUGACAUACAGAAAAAGCUGGGCAUCAGCCUGGACCGGCACUUUAUAAUCCAGAGUGCAGAACAGCCCUAUAAGAACGCCGCUCGGUGC: 0.0862 ratio
UUACUUUUGACUCCCUGGGUCAAGUUCCUGUGGGAAUCAUACAGGCAGUGUUUGGACCUUCUUAGAAACAAUUCUAGAGUAGAGCGCCUUUACCAUGAUAUCGCCCAACAAGCUUUCAAA: 0.255 ratio
GAUCUCGGGCCCUCCCCAGGGGCCUCCUUUCGUAUAGUCACUGCUUCUGCAUCAGAUACUUUCAGCUGCAACUCCCUACUGGGUGGGGCACCUAUCUCAGGCAGAAGGUUUUGGUACCCU: 0.112 ratio
UUUGUAUUUAUGCUAAGCACACGUGCUGGUGGUCUUGGCAUCAAUCUUGCAACUGCUGAUGUAGUCAUUUUAUAUGACUCAGAUUGGAAUCCCCAAGUUGAUCUUCAGGCUAUGGACCGU: 0.142 ratio
UCCCAAAUCCAGCAGCUAGAAGGAGCCAAUUGUUUGUCACUCCACACACAGGGAAGGCGAUAACAUUGUACAUUGGUUUACAUUUUUUCCCCCUGUGGAUUUUUCUAUCCUAGUGCUUGC: 0.421 ratio

Block 4
Cell line: HEK-293T/ACE2
Concentration: concentration not given
Time: 16 (unit not given)
Relative to: vehicle
Endpoint: viability
COc1ccc([C@@H]2Sc3ccccc3N(CCN(C)C)C(=O)[C@@H]2OC(C)=O)cc1: 105%
Nc1nc2c(c(=O)[nH]1)N(C=O)C(CNc1ccc(C(=O)N[C@@H](CCC(=O)O)C(=O)O)cc1)CN2 (some centres unmarked): 107%
CCC1(c2ccccc2)C(=O)NCNC1=O: 106%
CC(C)(Sc1cc(C(C)(C)C)c(O)c(C(C)(C)C)c1)Sc1cc(C(C)(C)C)c(O)c(C(C)(C)C)c1: 101%
Nc1nc2c(ncn2CCC(CO)CO)c(=O)[nH]1: 102%

Block 5
Target: Replicase polyprotein 1ab, main protease (rep, Severe acute respiratory syndrome coronavirus 2, UniProt P0DTD1)
Read-out: enzyme activity
Action: inhibitor
Concentration: 20 µM
Notes: hit confirmation, no DTT
Endpoint: inhibition
C[C@@H]1O[C@@H](Oc2c(-c3cc(O)c(O)c(O)c3)oc3cc(O)cc(O)c3c2=O)[C@@H](O)[C@H](O)[C@H]1O: 77.9%
C[C@H](NC(=O)/C(C#N)=C/c1cccc(Br)n1)c1ccccc1: 92.3%
CC1=C(/C=C/C(C)=C/C=C/C(C)=C/C(=O)O)C(C)(C)CCC1: 71.7%
O=C(NCCCNc1nc(Nc2cccc(NC(=O)N3CCCC3)c2)ncc1I)c1cccs1: 75.1%
